Measured values of several laboratories.
Lines come from different studies, so protocols differ. Numbers after ± are the reported error.
SLC10A1: Hepatic sodium/bile acid cotransporter (SLC10A1, Homo sapiens, UniProt Q14973)
Protein farnesyltransferase: Protein farnesyltransferase (Homo sapiens, UniProt P49354+P49356)
Enoyl-[acyl-carrier-protein] reductase [NADPH] FabI: Enoyl-[acyl-carrier-protein] reductase [NADPH] FabI (Staphylococcus aureus, UniProt Q6GI75)
GPR17 R283I short isoform: Uracil nucleotide/cysteinyl leukotriene receptor, short isoform (GPR17, Homo sapiens, UniProt Q13304, R283I)
CXCR4: C-X-C chemokine receptor type 4 (CXCR4, Homo sapiens, UniProt P61073)

Substance	target	test	system	setting	how to read	measurement	result
CCc1nn(CCCN2CCN(c3cccc(Cl)c3)CC2)c(=O)n1CCOc1ccccc1	SLC10A1	inhibitor	HEK293 expressing NTCP	100 µM, 5 min, with: taurocholate 10 µM	reference: no compound	taurocholate uptake	60.8 ± 1.9%
CLVL	Protein farnesyltransferase	enzyme activity, substrate, fluorimetric	peptide	3 µM, 30 min, with: 9 µM farnesyl diphosphate	reference: dansyl-GCVLS (set to 1.0)	relative fluorescence increase	< 0.05
O=C1[C@H](CC[C@H](O)c2ccc(F)cc2)[C@@H](c2ccc(O)cc2)N1c1ccc(F)cc1	SLC10A1	inhibitor	NTCP-HEK293	50 µM	reference: without compound	taurocholate uptake	62.5 ± 1.4%
CCCCCC(C)=O	Chilo suppressalis CSP2	binding, competitive fluorescence displacement		30 µM, pH 7.4		fluorescence intensity	72.4 ± 2.93%
CCCc1ccc(Oc2ccccc2)c(O)c1	Enoyl-[acyl-carrier-protein] reductase [NADPH] FabI	enzyme activity, inhibitor, progress curve kinetics, measured: NADPH				Ki	0.07 nM
Cc1ccc(-n2sc(=O)n(Cc3ccc(F)cc3)c2=O)cc1	Regulator of G-protein signaling 8 (Homo sapiens, UniProt P57771)	Gαo binding, inhibitor, FCPIA after gel filtration		concentration not given	reference: vehicle-treated protein	loss of potency after treatment	14 fold
N.N.N.N.Nc1nc(C#Cc2ccccc2)nc2c1ncn2[C@@H]1O[C@H](COP(=O)(O)OP(=O)(O)OP(=O)(O)O)[C@@H](O)[C@H]1O	GPR17 R283I short isoform	frontal affinity chromatography-MS	mutated receptor IAM column	concentration not given	reference: wild type column	breakthrough time change	23%
Oc1cc(Cl)ccc1Oc1ccccc1	Enoyl-[acyl-carrier-protein] reductase [NADPH] FabI	enzyme activity, inhibitor, progress curve kinetics, measured: NADPH				Ki	0.12 ± 0.01 nM
O=S(=O)([O-])c1cc(Nc2nc(Cl)nc(Cl)n2)c2c(O)c(N=Nc3ccccc3)c(S(=O)(=O)[O-])cc2c1.[Na+].[Na+]	ancestral DyP peroxidase wild type	peroxidase activity, substrate		pH 4.0, 25 °C, pH 4.5 for Mn2+		Hill coefficient	~3
O=C(NCc1ccc(CNS(=O)(=O)c2ccc(CN3CCCC3)cc2)cc1)c1ccc(F)cc1	CXCR4	binding, competitor, rhodamine fluorescence	MDA-MB-231	semi-quantitative screen, with: biotinylated TN14003		lowest effective concentration	1 nM
Cc1ncsc1-c1ccc(CNC(=O)[C@@H]2C[C@@H](O)CN2C(=O)[C@@H](NC(=O)CCCCCCCNC(=O)O[C@H]2C[C@@H](C)C=C3C=C[C@H](C)[C@H](CC[C@@H]4C[C@@H](O)CC(=O)O4)[C@H]32)C(C)(C)C)cc1	3-hydroxy-3-methylglutaryl-coenzyme A reductase (HMGCR, Homo sapiens, UniProt P04035)	Western blot	HepG2	1 µM, 16 h	reference: untreated control	remaining protein level	63 ± 5%
NC(=O)c1cccc2[nH]c(-c3cccc(C(=O)N4CCn5c(nnc5C(F)(F)F)C4)c3)nc12	Poly [ADP-ribose] polymerase 1 (PARP1, Homo sapiens, UniProt P09874)	DNA binding, fluorescence polarization DNA competition		100 µM, 200 s, with: unlabeled competitor DNA 2 µM		PARP1 bound to DNA	3.9 ± 4.8%
CC[C@H](C)[C@H](NC(=O)[C@H](CC(C)C)NC(=O)[C@H](CCCCN)NC(=O)[C@H](CCC(=O)O)NC(=O)[C@H](CCCCN)NC(=O)[C@@H](NC(=O)[C@H](CCCCN)NC(=O)[C@H](CCC(=O)O)NC(=O)[C@@H](NC(=O)[C@H](CCCNC(=N)N)NC(=O)[C@H](CCC(=O)O)NC(=O)[C@H](CCCCN)NC(=O)[C@H](CCC(=O)O)NC(=O)[C@H](CC(C)C)NC(=O)[C@H](CCCCN)NC(=O)[C@@H](NC(=O)[C@H](CC(C)C)NC(=O)[C@H](CCC(=O)O)NC(=O)[C@H](CCC(N)=O)NC(=O)[C@H](CC(C)C)NC(=O)[C@H](CCCNC(=N)N)NC(=O)[C@H](CC(=O)O)NC(=O)[C@@H](N)CC(N)=O)C(C)C)[C@@H](C)O)C(C)C)C(=O)N[C@@H](CC(=O)O)C(=O)N1CCC[C@H]1C(=O)O	Calmodulin-1, Ca2+-bound N-lobe (CALM1, Homo sapiens, UniProt P0DP23)	ITC	isolated calmodulin N-lobe	50 µM, pH 7.0, 27 °C, 0.5 mM N-lobe, with: 1 mM CaCl2		association constant K1	< 20000 M⁻¹
CEKL	Protein farnesyltransferase	enzyme activity, substrate, fluorimetric	peptide	3 µM, 30 min, with: 9 µM farnesyl diphosphate	reference: dansyl-GCVLS (set to 1.0)	relative fluorescence increase	0
O=C1NC(=O)C(c2ccccc2)(c2ccccc2)N1	Monocarboxylate transporter 8 (SLC16A2, Rattus norvegicus, UniProt Q8K1P8)	substrate, Xenopus oocytes		9.09 µM, 20 °C	reference: water-injected oocytes	uptake	1.5 fold
O=C(CCn1c2ccccc2c2ccncc21)N(c1ccc(F)cc1)c1ccc(F)cc1	Proteasome subunit alpha type-2/Proteasome subunit alpha type-6, 20S proteasome (Homo sapiens, UniProt P25787+P60900)	proteolysis, activator, fluorogenic peptide	purified 20S proteasome	up to 30 µM, with: Suc-LLVY-AMC, Z-LLE-AMC, Boc-LRR-AMC	reference: vehicle	maximum fold increase	12
CCCCCCCCCCCCCC(C)=O	Chilo suppressalis CSP2	binding, competitive fluorescence displacement		30 µM, pH 7.4		fluorescence intensity	49.4 ± 3.91%
CCCCC#Cc1cn([C@@H]2O[C@H](COP(=O)(O)OP(=O)(O)O)[C@@H](O)[C@H]2O)c(=O)[nH]c1=O	GPR17 R283I short isoform	frontal affinity chromatography-MS	mutated receptor IAM column	concentration not given	reference: wild type column	breakthrough time change	-2.4%
CN(Cc1ccc(CN(C)Cc2cccc(Cl)c2)cc1)Cc1cccc(Cl)c1	CXCR4	binding, competition binding	MDA-MB-231	semi-quantitative screen, with: biotinylated TN14003		lowest effective concentration	1000 nM
Nc1nc(NC2CC2)c2ncn([C@H]3C=C[C@@H](CO)C3)c2n1	SLC10A1	inhibitor	HEK293 expressing NTCP	100 µM, 5 min, with: taurocholate 10 µM	reference: no compound	taurocholate uptake	94.9 ± 4.4%
COc1cc2c(NC3CCN(CCCC(=O)NCCCCCCCCCCC(=O)N[C@H](C(=O)N4C[C@H](O)C[C@H]4C(=O)NCc4ccc(-c5scnc5C)cc4)C(C)(C)C)CC3)nc(N3CCC(F)(F)CC3)nc2cc1OCCCN1CCCC1	Histone-lysine N-methyltransferase EHMT2 (EHMT2, Homo sapiens, UniProt Q96KQ7)	degrader, western blot		0.3 µM, 24 h	reference: DMSO	degradation	79 ± 16%
C[C@H](NC(=O)[C@H](Cc1ccccc1)NC(=O)[C@@H](NC(=O)[C@H](Cc1ccccc1)NC(=O)[C@H](C)NC(=O)[C@H](CCCNC(=N)N)N(C)C(=O)[C@@H]1CCCN1C(=O)[C@H](CCCNC(=N)N)NC(=O)CNC(=O)c1ccc2c(c1)C1(OC2=O)c2ccc(O)cc2Oc2cc(O)ccc21)[C@@H](C)O)C(=O)N[C@@H](CCC(=O)O)C(=O)NCC(N)=O	RAC-alpha serine/threonine-protein kinase (AKT1, Homo sapiens, UniProt P31749)	substrate, CE-LIF		25 µM, pH 7.0, 30 °C, enzyme 6 nM, with: ATP 1 mM		time to half phosphorylation	30 min
O=c1c(O)c(-c2ccc(O)c(O)c2)oc2cc(O)cc(O)c12	UDP-glucuronosyltransferase 1A9 (UGT1A9, Homo sapiens, UniProt O60656)	enzyme activity, inhibitor		50 µM		remaining activity	11.7%
CTIL	Protein farnesyltransferase	enzyme activity, substrate, fluorimetric	peptide	3 µM, 30 min, with: 9 µM farnesyl diphosphate	reference: dansyl-GCVLS (set to 1.0)	relative fluorescence increase	0.45
CCCCc1ncc(/C=C(\Cc2cccs2)C(=O)O)n1Cc1ccc(C(=O)O)cc1	SLC10A1	inhibitor	HEK293 expressing NTCP	100 µM, 5 min, with: taurocholate 10 µM	reference: no compound	taurocholate uptake	99.9 ± 0.7%
Oc1c(C(Nc2ccccc2)c2c(F)cc(Br)cc2F)ccc2ccccc12 (centres unmarked)	CAAX prenyl protease 2 (Homo sapiens, UniProt Q9Y256)	enzyme activity, inhibitor		10 µM		remaining activity	< 40%

Repeated from above:
Substance	target	test	system	setting	how to read	measurement	result
NC(=O)c1cccc2[nH]c(-c3cccc(C(=O)N4CCn5c(nnc5C(F)(F)F)C4)c3)nc12	Poly [ADP-ribose] polymerase 1 (PARP1, Homo sapiens, UniProt P09874)	DNA binding, fluorescence polarization DNA competition		100 µM, 200 s, with: unlabeled competitor DNA 2 µM		PARP1 bound to DNA	3.9 ± 4.8%
CC[C@H](C)[C@H](NC(=O)[C@H](CC(C)C)NC(=O)[C@H](CCCCN)NC(=O)[C@H](CCC(=O)O)NC(=O)[C@H](CCCCN)NC(=O)[C@@H](NC(=O)[C@H](CCCCN)NC(=O)[C@H](CCC(=O)O)NC(=O)[C@@H](NC(=O)[C@H](CCCNC(=N)N)NC(=O)[C@H](CCC(=O)O)NC(=O)[C@H](CCCCN)NC(=O)[C@H](CCC(=O)O)NC(=O)[C@H](CC(C)C)NC(=O)[C@H](CCCCN)NC(=O)[C@@H](NC(=O)[C@H](CC(C)C)NC(=O)[C@H](CCC(=O)O)NC(=O)[C@H](CCC(N)=O)NC(=O)[C@H](CC(C)C)NC(=O)[C@H](CCCNC(=N)N)NC(=O)[C@H](CC(=O)O)NC(=O)[C@@H](N)CC(N)=O)C(C)C)[C@@H](C)O)C(C)C)C(=O)N[C@@H](CC(=O)O)C(=O)N1CCC[C@H]1C(=O)O	Calmodulin-1, Ca2+-bound N-lobe (CALM1, Homo sapiens, UniProt P0DP23)	ITC	isolated calmodulin N-lobe	50 µM, pH 7.0, 27 °C, 0.5 mM N-lobe, with: 1 mM CaCl2		association constant K1	< 20000 M⁻¹
